# Measured values gathered from unrelated publications.
# Several values in a cell are separate wells, animals, samples, runs or records. Numbers after ± are the reported error.
# Organism: Acinetobacter baumannii
SMILES,test,system,conditions,scale,measurement,result
NC[C@H]1O[C@H](O[C@H]2[C@H](O)[C@@H](O[C@H]3O[C@H](CO)[C@@H](O)[C@H](N)[C@H]3O)[C@H](N)C[C@@H]2N)[C@H](O)[C@@H](O)[C@@H]1O,colony counting,"19606, biofilm","100 µg/mL, 12 h, added: HNP1 8 µM",,survival,0.908% and 0.877% and 0.595% and 0.658% and 1.25%
N=C(N)NCCC[C@H](NC(=O)[C@H](Cc1c[nH]c2ccccc12)NC(=O)[C@H](CCCNC(=N)N)NC(=O)[C@@H](N)Cc1c[nH]c2ccccc12)C(=O)N[C@@H](Cc1ccccc1)C(=O)N[C@@H](CCC(N)=O)C(=O)N[C@@H](Cc1ccccc1)C(=O)N[C@@H](CCC(N)=O)C(=O)N[C@@H](Cc1ccccc1)C(=O)N[C@@H](CCCCN)C(N)=O,,,,,MBC,140 µM
O=C(O)c1cccc(C(=O)O)n1,,NDM-2 producer,"32 µg/mL, added: meropenem",,meropenem MIC,2 µg/mL
C[C@@H](O)[C@H]1C(=O)N2C(C(=O)O)=C([C@H]3CCCO3)S[C@H]12,checkerboard,carbapenem-resistant,"concentration not given, added: anionic gold nanoparticle 8 µg/mL",reference: MIC alone over combination,MIC fold reduction,16 fold
CN(C)[C@@H]1C(O)=C(C(N)=O)C(=O)[C@@]2(O)C(O)=C3C(=O)c4c(O)cccc4[C@@](C)(O)[C@H]3C[C@@H]12,,"19606, biofilm","3.125 µg/mL, added: HNP1 8 µM",,survival,99.2% and 84.1% and 104% and 100% and 93.1%
Cn1c(=O)ccc2ccc(F)c(CCNC[C@H]3CN(c4cnc5c(n4)NC(=O)CO5)C(=O)O3)c21,,,,,MIC50,0.25 µg/mL
C[C@@H](N)[C@H](O)CCCCCCCC(=O)CCCCCCCCCCCCCC[C@@H](O[C@@H]1O[C@H](CO)[C@H](O)[C@H](O)[C@H]1O)[C@@H](C)N,resazurin,ATCC 19606,50 µM,,growth inhibition,99 ± 0.01%
N=C(N)NCCC[C@H](NC(=O)[C@@H](N)CCCNC(=N)N)C(=O)N[C@@H](Cc1c[nH]c2ccccc12)C(=O)N[C@@H](Cc1c[nH]c2ccccc12)C(=O)N[C@@H](Cc1ccccc1)C(=O)N[C@@H](CCC(N)=O)C(=O)N[C@@H](Cc1ccccc1)C(=O)N[C@@H](CCC(N)=O)C(=O)N[C@@H](Cc1ccccc1)C(=O)N[C@@H](CCCCN)C(N)=O,,,,,MBC,1130 µM
C[C@@H](O)[C@H]1C(=O)N2C(C(=O)O)=C(S[C@@H]3CN[C@H](C(=O)Nc4cccc(C(=O)O)c4)C3)[C@H](C)[C@H]12,checkerboard,carbapenem-resistant,"concentration not given, added: anionic gold nanoparticle 8 µg/mL",reference: MIC alone over combination,MIC fold reduction,32 fold
CC[C@H](C)[C@H](NC(=O)[C@H](C)NC(=O)[C@H](CCCCN)NC(=O)[C@H](CC(C)C)NC(=O)[C@H](C)NC(=O)[C@@H](NC(=O)[C@H](Cc1c[nH]cn1)NC(=O)[C@H](CC(C)C)NC(=O)[C@@H](NC(=O)[C@@H](NC(=O)[C@H](CCCCN)NC(=O)[C@H](C)NC(=O)[C@H](C)NC(=O)[C@H](CO)NC(=O)[C@H](CCCCN)NC(=O)[C@H](Cc1ccccc1)NC(=O)[C@@H](NC(=O)[C@H](CCCCN)NC(=O)[C@H](CC(C)C)NC(=O)[C@H](Cc1ccccc1)NC(=O)[C@H](CO)NC(=O)[C@H](CCCCN)NC(=O)[C@H](Cc1c[nH]c2ccccc12)NC(=O)[C@H](CCCCN)NC(C)=O)[C@@H](C)O)[C@@H](C)O)C(C)C)[C@@H](C)O)C(=O)N[C@@H](CO)C(=O)N[C@@H](CO)C(N)=O,,IPM-R,87 strains,,MBC90,16 µg/mL
C[C@@H](O)[C@H]1C(=O)N2C(C(=O)[O-])=C(SC3Cn4cnc[n+]4C3)[C@H](C)[C@H]12 (stereo partly shown),checkerboard,carbapenem-resistant,"concentration not given, added: anionic gold nanoparticle 8 µg/mL",reference: MIC alone over combination,MIC fold reduction,8 fold
C[C@@H](O)[C@H]1C(=O)N2C(C(=O)O)=C(S[C@@H]3CN[C@H](C(=O)N(C)C)C3)[C@H](C)[C@H]12,,"ATCC 19606, rat lung infection, lung",30 mg/kg,,lung bacterial burden,4.3 log10 CFU/g and 4.12 log10 CFU/g
CNC(C)C1CCC(N)C(OC2C(N)CC(N)C(OC3OCC(C)(O)C(NC)C3O)C2O)O1 (stereo not shown),,"19606, biofilm","100 µg/mL, added: HNP1 8 µM",,survival,4.25% and 5.1% and 3.4%

# Repeated from above:
SMILES,test,system,conditions,scale,measurement,result
O=C(O)c1cccc(C(=O)O)n1,,NDM-2 producer,"32 µg/mL, added: meropenem",,meropenem MIC,2 µg/mL
